Results of several laboratories.
Parts stem from different laboratories: compare values within a part only.

Set 1
Target: Replicase polyprotein 1ab, nsp12 with nsp7/nsp8 (rep, Severe acute respiratory syndrome coronavirus 2, UniProt P0DTD1)
Mode: inhibitor
Organism: SARS-CoV-2
Tested at: 20 µM
Endpoint: inhibition
SMILES = CN(C)[C@@H]1C(O)=C(C(N)=O)C(=O)[C@@]2(O)C(O)=C3C(=O)c4c(O)cccc4[C@@](C)(O)[C@H]3[C@H](O)[C@@H]12; value = 106%
SMILES = CCOc1ccc2nc3cc(N)ccc3c(N)c2c1; value = 91.6%
SMILES = OCCOCCN1CCN(C(c2ccccc2)c2ccc(Cl)cc2)CC1 (centres unmarked); value = 78.8%

Set 2
Cell line: HEK-293T
Read-out: pseudovirus infection
Technique: FDA-approved drug library screen
Organism: VSV pseudotyped with SARS-CoV-2 spike
Tested at: 10 µM
Time: 16 h
Reference: vehicle-treated
Endpoint: GFP-positive cells
SMILES = O=C(O)CCCCCCCC(=O)O; value = 87.3%
SMILES = C[C@H](CCC(=O)O)[C@H]1CC[C@H]2[C@@H]3CC[C@@H]4C[C@H](O)CC[C@]4(C)[C@H]3C[C@H](O)[C@]12C; value = 78.4%
SMILES = CC1=CC(=O)c2ccccc2C1=O; value = 97.2%
SMILES = Cn1c(=O)c2c(ncn2CC(O)CO)n(C)c1=O (centres unmarked); value = 70.5%

Set 3
Target: Sal-like protein 4, full length isoform A (SALL4, Homo sapiens, UniProt Q9UJQ4, residues 1-1053)
UniProt Q9UJQ4, sequence (whole entry, looked up): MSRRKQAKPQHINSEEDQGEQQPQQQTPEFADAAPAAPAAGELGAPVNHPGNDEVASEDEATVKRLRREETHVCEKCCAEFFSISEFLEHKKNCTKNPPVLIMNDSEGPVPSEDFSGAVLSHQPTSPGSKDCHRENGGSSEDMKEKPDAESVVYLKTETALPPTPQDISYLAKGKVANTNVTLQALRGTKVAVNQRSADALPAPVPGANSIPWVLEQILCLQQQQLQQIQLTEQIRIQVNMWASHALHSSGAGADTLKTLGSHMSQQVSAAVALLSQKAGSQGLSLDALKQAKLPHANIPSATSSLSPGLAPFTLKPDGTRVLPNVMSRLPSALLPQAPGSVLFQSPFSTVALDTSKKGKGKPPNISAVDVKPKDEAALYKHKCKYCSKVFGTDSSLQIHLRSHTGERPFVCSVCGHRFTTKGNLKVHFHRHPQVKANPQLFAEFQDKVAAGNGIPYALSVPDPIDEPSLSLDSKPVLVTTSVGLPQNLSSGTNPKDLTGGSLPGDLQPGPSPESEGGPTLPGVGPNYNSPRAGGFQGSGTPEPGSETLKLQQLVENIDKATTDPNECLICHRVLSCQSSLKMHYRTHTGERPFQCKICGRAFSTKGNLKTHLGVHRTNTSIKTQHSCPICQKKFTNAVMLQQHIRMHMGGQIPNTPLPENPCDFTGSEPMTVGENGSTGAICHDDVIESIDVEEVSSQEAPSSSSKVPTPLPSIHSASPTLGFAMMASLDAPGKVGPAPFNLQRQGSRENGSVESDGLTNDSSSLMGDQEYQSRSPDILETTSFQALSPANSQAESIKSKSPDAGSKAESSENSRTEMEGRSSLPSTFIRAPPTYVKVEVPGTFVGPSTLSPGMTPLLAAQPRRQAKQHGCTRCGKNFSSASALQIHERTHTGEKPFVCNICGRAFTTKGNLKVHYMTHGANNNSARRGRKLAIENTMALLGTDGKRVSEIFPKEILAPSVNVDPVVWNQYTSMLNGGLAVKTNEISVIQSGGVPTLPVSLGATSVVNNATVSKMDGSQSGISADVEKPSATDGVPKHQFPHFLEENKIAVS
Technique: universal PBM
Form: double-stranded DNA, one strand shown
Matrix: in vitro
Tested at: 600 nM
Notes: 8-mer, flanks averaged, mean of replicates
Reading: higher = stronger binding
Endpoint: E-score
Strand = ATGGTACC; value = -0.108
Strand = AATCGGGA; value = -0.048
Strand = CGAACATA; value = 0.233
Strand = AATCGTAC; value = 0.0842
Strand = GTACTGTA; value = 0.115
Strand = AAAGTCGA; value = -0.0662
Strand = AGTGCATG; value = 0.0683
Strand = GAAATCCC; value = -0.116

Set 4
Target: Replicase polyprotein 1ab, main protease (rep, Severe acute respiratory syndrome coronavirus 2, UniProt P0DTD1)
Read-out: enzyme activity
Tested at: 20 µM
Notes: with DTT
Endpoint: inhibition
Structure (SMILES) = COC(=O)[C@H](CCSC)NC(=O)c1ccc(NC[C@@H](N)CS)cc1-c1ccccc1; value = 83%
Structure (SMILES) = CCN1CCN(C(c2ccc(C(F)(F)F)cc2)c2ccc3cccnc3c2O)CC1 (centres unmarked); value = 99.6%
Structure (SMILES) = CCN(CC)S(=O)(=O)c1cccc(-n2sc3ccccc3c2=O)c1; value = 98.3%
Structure (SMILES) = O=C(NC(=S)N1CCCc2ccccc21)c1ccccc1; value = 68.6%
Structure (SMILES) = CS/C(N)=C(C#N)/C(C#N)=C(\N)SC; value = -9.7%
